Assay results from different studies.
A part holds a random share of what one study measured. Substitutions count along the parent as printed.

Block 1 — target: CCND1, cyclin fold, Cln2 fusion (human); technique: yeast growth competition, sequencing; sample: yeast; setting: strong parent motif; reference: not given; direction: higher = stronger binding
Starting sequence: viral docking peptide; KGVKRKLFAEDSS; partner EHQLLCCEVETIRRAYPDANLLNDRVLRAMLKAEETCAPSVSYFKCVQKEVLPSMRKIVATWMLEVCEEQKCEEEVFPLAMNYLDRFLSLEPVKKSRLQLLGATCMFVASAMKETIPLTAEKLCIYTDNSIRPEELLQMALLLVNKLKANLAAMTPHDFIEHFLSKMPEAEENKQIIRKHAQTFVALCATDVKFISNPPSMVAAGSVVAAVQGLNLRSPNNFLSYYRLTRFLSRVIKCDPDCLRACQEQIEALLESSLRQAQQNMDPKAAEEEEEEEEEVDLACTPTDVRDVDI
| Change | normalised enrichment score |
| --- | --- |
| A9V | 1.37 |
| D11R | 0.231 |
| K4L | 0.271 |
| V3N | 0.244 |
| K6H | 0.238 |
| K6E | 1.41 |
| E10W | 0.49 |
| L7D | 0.0908 |
| R5T | 0.28 |
| K6C | 0.776 |
| G2I | 0.872 |
| S12N | 1.66 |
| L7Q | 0.118 |
| S12A | 1.4 |
| K4E | 0.714 |
| D11T | 0.458 |
| K6T | 0.355 |
| G2N | 2.38 |
| G2M | 1.31 |
| F8K | 0.274 |
| V3T | 1.59 |
| K6N | 0.23 |
| R5N | -0.125 |
| F8A | 0.15 |
| E10S | 0.304 |

Block 2 — read-out: peptide-MHC binding; form: peptide; tested at: concentration not given
Target: HLA class I histocompatibility antigen, A alpha chain, allele A*80:01 (Homo sapiens, UniProt P04439)
| Sequence | binding |
| --- | --- |
| VFSDGRVAC | inactive |
| LLDLEGHIL | inactive |
| TEFFMSRKL | inactive |
| KLADYLLLQ | inactive |
| NTDEIPELI | inactive |

Block 3 — technique: RNA Bind-n-Seq; form: RNA; sample: in vitro; tested at: 90 pmol; setting: 4-mer, random 30-nt RNA, single round; reference: input library; direction: higher = stronger binding
Target: Eukaryotic initiation factor 4A-I (EIF4A1, Homo sapiens, UniProt P60842, residues 1-406, full length assumed)
Chain of UniProt P60842 (whole entry, looked up): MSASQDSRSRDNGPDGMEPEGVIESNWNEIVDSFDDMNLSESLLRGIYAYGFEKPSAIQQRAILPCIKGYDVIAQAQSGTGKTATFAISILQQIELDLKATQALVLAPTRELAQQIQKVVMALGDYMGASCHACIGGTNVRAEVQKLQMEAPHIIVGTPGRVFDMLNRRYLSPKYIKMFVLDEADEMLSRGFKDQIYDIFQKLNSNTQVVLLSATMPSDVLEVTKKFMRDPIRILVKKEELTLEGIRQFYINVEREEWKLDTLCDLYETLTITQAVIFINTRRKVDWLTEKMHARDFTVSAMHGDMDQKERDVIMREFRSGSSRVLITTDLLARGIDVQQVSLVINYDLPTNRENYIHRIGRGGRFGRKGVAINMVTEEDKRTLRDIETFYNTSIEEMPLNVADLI
Together with: 3 µM iPr-DMDA-PatA, 2 mM ADP, 2 mM phosphate
| Oligonucleotide | 4-mer enrichment |
| --- | --- |
| CAUU | 1 fold |
| UCGC | 0.841 fold |
| UCUC | 0.972 fold |
| UAGC | 0.968 fold |
| CGUU | 0.888 fold |
| UCCU | 0.959 fold |
| GAAC | 1.15 fold |
| UACG | 1.02 fold |

Block 4 — technique: protein binding microarray; form: double-stranded DNA, one strand shown; sample: in vitro; tested at: not given; reference: not given; direction: higher = stronger binding
Target: Histone acetyltransferase KAT6A, winged helix 1, GST fusion (KAT6A, Homo sapiens, UniProt Q92794, residues 1-85)
Setting: 8-mer, flanks averaged, mean of 2 arrays, mostly near background
Residues (chain): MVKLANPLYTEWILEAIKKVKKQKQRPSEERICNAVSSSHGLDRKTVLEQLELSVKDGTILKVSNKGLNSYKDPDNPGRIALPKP
| Oligonucleotide | E-score |
| --- | --- |
| AGCAGATC | -0.288 |
| CTACCAAA | -0.0398 |
| GTATCTGA | -0.0354 |
| ATTACCGC | 0.319 |
| ACGCGTCA | 0.211 |
| TCGAGTAA | -0.216 |
| CGTCGCAG | 0.252 |
| AACGATGC | -0.0488 |

Block 5 — technique: RNA Bind-n-Seq; form: RNA; sample: in vitro; tested at: not given; reference: input RNA pool; direction: higher = stronger binding
Target: RING finger protein unkempt homolog, zinc fingers 1-6, GST-SBP tag (UNK, Homo sapiens, UniProt Q9C0B0, residues 30-357)
Chain of UniProt Q9C0B0 (30-357, looked up): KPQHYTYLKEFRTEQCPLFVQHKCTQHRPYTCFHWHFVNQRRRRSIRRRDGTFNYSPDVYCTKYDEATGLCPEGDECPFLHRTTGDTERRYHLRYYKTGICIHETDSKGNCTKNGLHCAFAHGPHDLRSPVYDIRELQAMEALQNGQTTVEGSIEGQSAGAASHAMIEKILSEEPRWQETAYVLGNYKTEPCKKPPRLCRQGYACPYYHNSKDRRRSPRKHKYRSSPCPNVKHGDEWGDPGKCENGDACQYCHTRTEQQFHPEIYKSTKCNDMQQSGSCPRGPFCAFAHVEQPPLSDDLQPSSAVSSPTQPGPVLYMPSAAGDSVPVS
Setting: RNA with constant flanks, human and mouse sites, ends assumed
All sequences stand within: GGGAGUUCUACAGUCCGACGAUC … CAACAGAGGAUUGAGCAUCA
| Oligonucleotide | bound/input enrichment |
| --- | --- |
| UAUUUUUUGUAACCACUGUCUUAAUGGCAAAAUAAUUAUGGUAAAAUACAAGUCUCGUGUUUAUUAUUCCUUAAGAAGUCUGUGUUAUAUUACCACGGAACACCCAAUAAAGCAAAAUGU | 0.306 ratio |
| GAAGAGAAUAAACUCACCUAUACACCCAUUUUUAAUGAAUAUAUCUCCCUGGUAGAGAAGUACAUUGAAGAGCAGUUGCUGGAGCGUAUCCCAGGCUUCAACAUGGCGGCCUUCACAACC | 2.72 ratio |
| GAAGGUUUUUCAGAAUCCAAGAAAAGGUCAUCAGAAGAUGAAAAUGAAAAUAAAAUAGAGUUUAGGAAGAAAGGAGGAUUUGAAGGGGGAGGAUUCCUUGGAAGAAAGAAAGUUCCCUAU | 3.19 ratio |
| AUAAGAUAAACCACGUUUUCCUUCUCGUUAUCCCAGGAAUGCCCUAAAGUGCACCCCCUUCCCUGAAUAUUCAUCAGGGACACACAUCUAUCUGUCCAGACCUCUUUUUGUAAAGUACUU | 0.379 ratio |
| GUUCAGUUGGGGGGUAGACUGCUCAGUGAUAGUGCUUGCCAAGCUCUACCCUUAACUCCUUAGGUUGAACUGUGGCCUUUCCCACAAUCUCCCUCACCCCAAACUAAAACCAAAUCCAAG | 0.505 ratio |
| AACUUCUCUGACUACAUCCGUGGAGGCAUCGUCAGUCAGGUCAAAGUACCGAAAAAGAUUAGUUUUAAAUCCUUGCCAGCAUCACUGGUAGAGCCUGACUUUGUGAUGACUGACUUUGCC | 0.586 ratio |
| CUCAGUGAUCACACACGAAAUUCUGCCGAAGGCACAGAAUAUUUCAAAAUGCUUGUAGACGUUUUUGCUCCAGAAUUUCGAAGGCCAAAGAAUAUACAUCUCCGAAAUUUCUAUAUAAUU | 0.19 ratio |
| AAACGGCAGGAAGACCCUGACCACUGUCCAAGGGAUCGCUGAUGAUUACGAUAAAAAGAAACUAGUGAAGGCGUUUAAGAAGAAGUUUGCCUGCAAUGGUACUGUAAUUGAGCAUCCAGA | 0.124 ratio |

Excerpt of the above (block 3):
| Oligonucleotide | 4-mer enrichment |
| --- | --- |
| CAUU | 1 fold |
| UCGC | 0.841 fold |
| UCUC | 0.972 fold |
| UAGC | 0.968 fold |
| CGUU | 0.888 fold |
| UCCU | 0.959 fold |
